{"data": "Published values pooled from the literature", "note": "A part holds a random share of what one study measured.", "chain of UniProt P10721 (whole entry, unmodified, looked up)": "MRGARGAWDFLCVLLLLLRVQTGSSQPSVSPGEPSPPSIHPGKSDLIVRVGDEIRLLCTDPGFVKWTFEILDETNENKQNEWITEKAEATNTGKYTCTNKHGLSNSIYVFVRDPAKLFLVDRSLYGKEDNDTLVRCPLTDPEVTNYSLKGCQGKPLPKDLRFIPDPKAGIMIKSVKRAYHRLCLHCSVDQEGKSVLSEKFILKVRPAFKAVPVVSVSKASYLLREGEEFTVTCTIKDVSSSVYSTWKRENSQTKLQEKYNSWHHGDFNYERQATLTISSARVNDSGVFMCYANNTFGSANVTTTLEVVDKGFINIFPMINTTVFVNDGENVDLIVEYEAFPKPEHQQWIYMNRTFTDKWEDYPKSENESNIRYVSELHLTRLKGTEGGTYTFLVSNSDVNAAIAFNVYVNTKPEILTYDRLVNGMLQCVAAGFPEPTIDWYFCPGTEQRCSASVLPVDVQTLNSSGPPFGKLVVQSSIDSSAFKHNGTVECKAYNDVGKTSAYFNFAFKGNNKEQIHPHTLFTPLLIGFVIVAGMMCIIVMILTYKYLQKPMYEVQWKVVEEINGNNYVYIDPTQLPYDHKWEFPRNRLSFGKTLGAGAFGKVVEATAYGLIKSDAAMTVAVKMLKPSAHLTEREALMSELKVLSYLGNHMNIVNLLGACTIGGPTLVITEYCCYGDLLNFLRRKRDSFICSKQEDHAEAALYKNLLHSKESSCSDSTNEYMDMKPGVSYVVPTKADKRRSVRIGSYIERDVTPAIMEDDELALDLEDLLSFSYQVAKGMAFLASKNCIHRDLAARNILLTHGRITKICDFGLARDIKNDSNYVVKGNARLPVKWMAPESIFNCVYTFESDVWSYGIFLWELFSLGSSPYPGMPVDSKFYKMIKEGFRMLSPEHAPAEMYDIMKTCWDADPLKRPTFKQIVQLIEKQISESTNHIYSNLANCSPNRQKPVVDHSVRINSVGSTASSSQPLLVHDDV", "chain of UniProt Q9NYY3 (whole entry, looked up)": "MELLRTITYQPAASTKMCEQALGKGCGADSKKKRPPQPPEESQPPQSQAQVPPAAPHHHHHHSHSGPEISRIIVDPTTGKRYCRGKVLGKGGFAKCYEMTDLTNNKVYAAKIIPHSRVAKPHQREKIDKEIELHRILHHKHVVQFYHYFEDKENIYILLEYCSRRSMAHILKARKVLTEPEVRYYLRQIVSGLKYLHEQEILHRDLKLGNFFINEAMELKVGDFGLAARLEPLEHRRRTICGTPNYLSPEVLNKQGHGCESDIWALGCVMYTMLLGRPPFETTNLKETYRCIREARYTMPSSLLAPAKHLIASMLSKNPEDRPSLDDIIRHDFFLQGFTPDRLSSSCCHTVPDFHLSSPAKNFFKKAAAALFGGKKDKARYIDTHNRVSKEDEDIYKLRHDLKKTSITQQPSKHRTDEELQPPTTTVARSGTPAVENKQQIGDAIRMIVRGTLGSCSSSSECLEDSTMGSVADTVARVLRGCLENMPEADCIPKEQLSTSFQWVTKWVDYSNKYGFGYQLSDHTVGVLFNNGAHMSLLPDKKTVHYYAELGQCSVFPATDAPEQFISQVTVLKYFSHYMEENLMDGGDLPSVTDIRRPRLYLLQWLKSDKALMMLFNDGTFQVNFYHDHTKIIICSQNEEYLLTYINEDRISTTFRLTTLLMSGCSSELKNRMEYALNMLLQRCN", "chain of UniProt O75676 (whole entry, looked up)": "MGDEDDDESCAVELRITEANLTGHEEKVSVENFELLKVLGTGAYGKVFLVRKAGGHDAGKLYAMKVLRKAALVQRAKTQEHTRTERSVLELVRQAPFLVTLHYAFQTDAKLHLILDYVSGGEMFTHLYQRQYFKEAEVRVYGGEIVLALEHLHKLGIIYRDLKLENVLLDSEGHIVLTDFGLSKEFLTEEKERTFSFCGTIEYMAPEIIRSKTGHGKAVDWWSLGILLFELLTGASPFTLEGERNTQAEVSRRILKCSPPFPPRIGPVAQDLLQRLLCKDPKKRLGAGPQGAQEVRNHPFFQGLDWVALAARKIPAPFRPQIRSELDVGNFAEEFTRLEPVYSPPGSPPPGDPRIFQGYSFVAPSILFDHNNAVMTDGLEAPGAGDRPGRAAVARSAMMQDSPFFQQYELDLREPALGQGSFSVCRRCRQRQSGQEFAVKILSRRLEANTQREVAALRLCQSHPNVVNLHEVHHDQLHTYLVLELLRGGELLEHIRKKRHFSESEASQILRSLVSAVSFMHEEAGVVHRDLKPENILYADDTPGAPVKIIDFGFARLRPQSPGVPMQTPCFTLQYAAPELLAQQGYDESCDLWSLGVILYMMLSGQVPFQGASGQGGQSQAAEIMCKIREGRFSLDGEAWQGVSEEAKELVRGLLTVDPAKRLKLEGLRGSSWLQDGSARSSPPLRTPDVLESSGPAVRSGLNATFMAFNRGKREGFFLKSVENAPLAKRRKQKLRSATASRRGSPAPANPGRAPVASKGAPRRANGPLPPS", "chain of UniProt P53778 (whole entry, looked up)": "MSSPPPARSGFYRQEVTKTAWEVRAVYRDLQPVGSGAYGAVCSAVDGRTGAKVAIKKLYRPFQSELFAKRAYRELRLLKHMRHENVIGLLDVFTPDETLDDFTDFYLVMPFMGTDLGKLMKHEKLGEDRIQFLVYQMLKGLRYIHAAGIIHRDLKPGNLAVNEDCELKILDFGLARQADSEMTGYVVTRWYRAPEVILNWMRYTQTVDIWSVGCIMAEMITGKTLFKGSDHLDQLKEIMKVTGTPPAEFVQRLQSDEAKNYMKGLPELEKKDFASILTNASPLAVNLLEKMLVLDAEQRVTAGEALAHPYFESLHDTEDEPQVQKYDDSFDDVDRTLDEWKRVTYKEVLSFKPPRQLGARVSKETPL", "chain of UniProt Q9NRH2 (whole entry, looked up)": "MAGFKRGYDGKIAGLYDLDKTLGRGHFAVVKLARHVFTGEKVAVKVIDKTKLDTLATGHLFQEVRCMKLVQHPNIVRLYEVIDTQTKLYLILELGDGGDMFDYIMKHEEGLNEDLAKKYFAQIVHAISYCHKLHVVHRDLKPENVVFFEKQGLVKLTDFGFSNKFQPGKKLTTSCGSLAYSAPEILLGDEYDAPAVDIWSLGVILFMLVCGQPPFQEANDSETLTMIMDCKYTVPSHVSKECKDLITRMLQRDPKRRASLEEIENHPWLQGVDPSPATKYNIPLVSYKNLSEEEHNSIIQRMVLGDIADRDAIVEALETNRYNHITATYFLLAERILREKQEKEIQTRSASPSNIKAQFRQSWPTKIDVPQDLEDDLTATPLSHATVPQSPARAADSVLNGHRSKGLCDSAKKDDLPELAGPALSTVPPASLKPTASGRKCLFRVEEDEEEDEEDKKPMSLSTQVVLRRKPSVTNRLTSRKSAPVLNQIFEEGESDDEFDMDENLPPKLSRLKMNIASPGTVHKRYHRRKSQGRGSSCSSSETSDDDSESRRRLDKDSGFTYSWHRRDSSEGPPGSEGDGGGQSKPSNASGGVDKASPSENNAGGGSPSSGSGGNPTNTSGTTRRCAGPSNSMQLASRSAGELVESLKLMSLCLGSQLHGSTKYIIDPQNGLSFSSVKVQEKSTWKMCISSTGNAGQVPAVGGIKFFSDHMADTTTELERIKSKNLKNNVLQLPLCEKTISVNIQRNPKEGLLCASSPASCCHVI", "chain of UniProt P07948 (whole entry, looked up)": "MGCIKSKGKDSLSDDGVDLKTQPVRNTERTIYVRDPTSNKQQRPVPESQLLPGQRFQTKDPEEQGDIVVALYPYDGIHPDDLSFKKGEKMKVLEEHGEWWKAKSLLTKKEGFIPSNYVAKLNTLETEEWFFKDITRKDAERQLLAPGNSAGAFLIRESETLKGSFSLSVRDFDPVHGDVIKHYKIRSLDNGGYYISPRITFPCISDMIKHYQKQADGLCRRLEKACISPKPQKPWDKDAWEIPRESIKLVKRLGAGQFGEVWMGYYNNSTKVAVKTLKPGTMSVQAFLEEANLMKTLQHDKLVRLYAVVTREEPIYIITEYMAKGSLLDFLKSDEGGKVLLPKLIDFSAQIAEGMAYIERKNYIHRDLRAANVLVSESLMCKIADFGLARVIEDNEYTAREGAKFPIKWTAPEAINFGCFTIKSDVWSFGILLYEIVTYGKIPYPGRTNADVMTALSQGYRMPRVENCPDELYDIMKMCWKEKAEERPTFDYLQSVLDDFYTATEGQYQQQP", "chain of UniProt Q9NWZ3 (whole entry, looked up)": "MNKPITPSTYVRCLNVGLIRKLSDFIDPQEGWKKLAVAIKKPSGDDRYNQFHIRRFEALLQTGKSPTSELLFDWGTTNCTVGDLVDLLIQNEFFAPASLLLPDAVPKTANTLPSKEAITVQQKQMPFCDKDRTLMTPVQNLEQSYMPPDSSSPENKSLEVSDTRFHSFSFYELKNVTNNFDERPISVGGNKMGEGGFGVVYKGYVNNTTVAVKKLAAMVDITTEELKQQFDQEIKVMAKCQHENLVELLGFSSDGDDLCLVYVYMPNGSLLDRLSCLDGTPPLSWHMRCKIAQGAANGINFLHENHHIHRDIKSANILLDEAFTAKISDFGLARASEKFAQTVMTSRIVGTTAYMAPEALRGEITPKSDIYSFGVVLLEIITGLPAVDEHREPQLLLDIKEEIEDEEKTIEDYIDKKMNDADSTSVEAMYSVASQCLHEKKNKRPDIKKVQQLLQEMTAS", "chain of UniProt Q9P289 (whole entry, looked up)": "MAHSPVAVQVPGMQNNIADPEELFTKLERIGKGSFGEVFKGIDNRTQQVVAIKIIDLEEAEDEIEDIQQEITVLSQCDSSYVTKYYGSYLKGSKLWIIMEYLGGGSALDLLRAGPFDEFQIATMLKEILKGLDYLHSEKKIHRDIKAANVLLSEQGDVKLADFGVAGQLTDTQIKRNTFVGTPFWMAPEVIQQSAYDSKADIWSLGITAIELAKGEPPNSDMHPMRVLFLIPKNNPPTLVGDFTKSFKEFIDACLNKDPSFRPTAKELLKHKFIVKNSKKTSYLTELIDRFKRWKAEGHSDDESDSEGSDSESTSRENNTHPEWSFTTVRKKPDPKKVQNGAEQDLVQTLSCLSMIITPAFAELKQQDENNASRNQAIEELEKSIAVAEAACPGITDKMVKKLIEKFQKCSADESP"}
{"data": "Block 1", "Structure (SMILES)": "COc1ccc2[nH]c3c4[nH]c5ccc(OC)cc5c4c4c(c3c2c1)C(=O)NC4=O", "tested at": "1 µM"}
{"target": "Mitogen-activated protein kinase 12 (MAPK12, Homo sapiens, UniProt P53778)", "method": "competitive binding", "setting": "p38-gamma", "remaining binding [%]": 70}
{"target": "Mitotic checkpoint serine/threonine-protein kinase BUB1 (BUB1, Homo sapiens, UniProt O43683)", "method": "competitive binding panel", "relative to": "vehicle", "remaining binding [%]": 29}
{"target": "Serine/threonine-protein kinase 26 (STK26, Homo sapiens, UniProt Q9P289)", "method": "competitive binding panel", "refers to": "MST4", "relative to": "vehicle", "remaining binding [%]": 85}
{"target": "Serine/threonine-protein kinase Nek11 (NEK11, Homo sapiens, UniProt Q8NG66)", "method": "competitive binding panel", "relative to": "vehicle", "remaining binding [%]": 100}
{"target": "Tyrosine-protein kinase FRK (FRK, Homo sapiens, UniProt P42685)", "method": "competitive binding panel", "relative to": "vehicle", "remaining binding [%]": 88}
{"target": "Mitogen-activated protein kinase 4 (MAPK4, Homo sapiens, UniProt P31152)", "method": "competitive binding panel", "refers to": "ERK4", "relative to": "vehicle", "remaining binding [%]": 74}
{"target": "Tyrosine-protein kinase Fer (FER, Homo sapiens, UniProt P16591)", "method": "competitive binding panel", "relative to": "vehicle", "remaining binding [%]": 58}
{"target": "SRSF protein kinase 1 (SRPK1, Homo sapiens, UniProt Q96SB4)", "method": "competitive binding panel", "relative to": "vehicle", "remaining binding [%]": 86}
{"target": "Casein kinase I isoform gamma-2 (CSNK1G2, Homo sapiens, UniProt P78368)", "method": "competitive binding panel", "relative to": "vehicle", "remaining binding [%]": 86}
{"target": "Mitogen-activated protein kinase 7 (MAPK7, Homo sapiens, UniProt Q13164)", "method": "competitive binding panel", "refers to": "ERK5", "relative to": "vehicle", "remaining binding [%]": 69}
{"data": "Block 2", "Structure (SMILES)": "CC(C)[C@H](CO)Nc1nc(Nc2cccc(Cl)c2)c2ncn(C(C)C)c2n1", "effect on": "enzyme activity", "action": "inhibitor", "tested at": "0.5 µM", "relative to": "control"}
{"target": "MAP kinase-interacting serine/threonine-protein kinase 2 (MKNK2, Homo sapiens, UniProt Q9HBH9)", "remaining activity": "87.5%"}
{"target": "Mast/stem cell growth factor receptor Kit (KIT, Homo sapiens, UniProt P10721)", "remaining activity": "91%"}
{"target": "Interleukin-1 receptor-associated kinase 4 (IRAK4, Homo sapiens, UniProt Q9NWZ3)", "remaining activity": "88.6%"}
{"target": "Protein kinase C iota type (PRKCI, Homo sapiens, UniProt P41743)", "remaining activity": "96.6%"}
{"target": "Casein kinase II subunit alpha (CSNK2A1, Homo sapiens, UniProt P68400)", "remaining activity": "101%"}
{"target": "Serine/threonine-protein kinase 38 (STK38, Homo sapiens, UniProt Q15208)", "remaining activity": "90.5%"}
{"target": "Mitogen-activated protein kinase kinase kinase kinase 2 (MAP4K2, Homo sapiens, UniProt Q12851)", "remaining activity": "97.6%"}
{"target": "Serine/threonine-protein kinase Nek4 (NEK4, Homo sapiens, UniProt P51957)", "remaining activity": "94.4%"}
{"target": "Tyrosine-protein kinase BTK (BTK, Homo sapiens, UniProt Q06187)", "remaining activity": "75.6%"}
{"target": "Serine/threonine-protein kinase WNK2 (WNK2, Homo sapiens, UniProt Q9Y3S1)", "remaining activity": "92.4%"}
{"target": "Serine/threonine-protein kinase Chk1 (CHEK1, Homo sapiens, UniProt O14757)", "remaining activity": "97.9%"}
{"target": "Dual specificity mitogen-activated protein kinase kinase 6 (MAP2K6, Homo sapiens, UniProt P52564)", "remaining activity": "105%"}
{"target": "RAC-gamma serine/threonine-protein kinase (AKT3, Homo sapiens, UniProt Q9Y243)", "remaining activity": "102%"}
{"target": "Mitogen-activated protein kinase 12 (MAPK12, Homo sapiens, UniProt P53778)", "remaining activity": "106%"}
{"target": "Casein kinase I isoform alpha (CSNK1A1, Homo sapiens, UniProt P48729)", "remaining activity": "91.8%"}
{"target": "Serine/threonine-protein kinase PLK2 (PLK2, Homo sapiens, UniProt Q9NYY3)", "remaining activity": "102%"}
{"target": "Tyrosine-protein kinase Lyn (LYN, Homo sapiens, UniProt P07948)", "remaining activity": "60.2%"}
{"target": "cGMP-dependent protein kinase 1 (PRKG1, Homo sapiens, UniProt Q13976)", "remaining activity": "71.4%"}
{"target": "Ephrin type-A receptor 5 (EPHA5, Homo sapiens, UniProt P54756)", "remaining activity": "87.9%"}
{"target": "Cyclin-dependent kinase 9, with cyclin T1 (CDK9, Homo sapiens, UniProt P50750)", "remaining activity": "65%"}
{"target": "Mitogen-activated protein kinase 13 (MAPK13, Homo sapiens, UniProt O15264)", "remaining activity": "122%"}
{"target": "Protein kinase C delta type (PRKCD, Homo sapiens, UniProt Q05655)", "remaining activity": "104%"}
{"target": "Leucine-rich repeat serine/threonine-protein kinase 2 (LRRK2, Homo sapiens, UniProt Q5S007)", "remaining activity": "77.7%"}
{"data": "Block 3", "Structure (SMILES)": "Cc1cc(-n2nc(Cc3cc(F)cc(C(F)(F)F)c3)nc2C)ccc1C(N)=O", "effect on": "cell-free assay", "method": "competition with immobilised ligand", "tested at": "1 µM"}
{"target": "Non-receptor tyrosine-protein kinase TNK1 (TNK1, Homo sapiens, UniProt Q13470)", "remaining binding [%]": 69}
{"target": "RAC-alpha serine/threonine-protein kinase (AKT1, Homo sapiens, UniProt P31749)", "remaining binding [%]": 94}
{"target": "Receptor-interacting serine/threonine-protein kinase 1 (RIPK1, Homo sapiens, UniProt Q13546)", "remaining binding [%]": 90}
{"target": "Mast/stem cell growth factor receptor Kit (KIT, Homo sapiens, UniProt P10721, D816V)", "remaining binding [%]": 100}
{"target": "Epithelial discoidin domain-containing receptor 1 (DDR1, Homo sapiens, UniProt Q08345)", "remaining binding [%]": 86}
{"target": "Serine/threonine-protein kinase BRSK1 (BRSK1, Homo sapiens, UniProt Q8TDC3)", "remaining binding [%]": 100}
{"target": "Dual specificity mitogen-activated protein kinase kinase 2 (MAP2K2, Homo sapiens, UniProt P36507)", "remaining binding [%]": 100}
{"target": "TRAF2 and NCK-interacting protein kinase (TNIK, Homo sapiens, UniProt Q9UKE5)", "remaining binding [%]": 100}
{"target": "Serine/threonine-protein kinase N1 (PKN1, Homo sapiens, UniProt Q16512)", "remaining binding [%]": 100}
{"target": "Epidermal growth factor receptor (EGFR, Homo sapiens, UniProt P00533, L861Q)", "remaining binding [%]": 100}
{"target": "Serine/threonine-protein kinase LATS2 (LATS2, Homo sapiens, UniProt Q9NRM7)", "remaining binding [%]": 100}
{"target": "Cyclin-dependent kinase-like 5 (CDKL5, Homo sapiens, UniProt O76039)", "remaining binding [%]": 100}
{"target": "Dual specificity mitogen-activated protein kinase kinase 7 (MAP2K7, Homo sapiens, UniProt O14733)", "remaining binding [%]": 100}
{"target": "Tyrosine-protein kinase ABL1, non-phosphorylated (ABL1, Homo sapiens, UniProt P00519, H396P)", "remaining binding [%]": 97}
{"target": "Mitogen-activated protein kinase kinase kinase kinase 5 (MAP4K5, Homo sapiens, UniProt Q9Y4K4)", "remaining binding [%]": 100}
{"target": "Serine/threonine-protein kinase NLK (NLK, Homo sapiens, UniProt Q9UBE8)", "remaining binding [%]": 100}
{"target": "Tyrosine-protein kinase ABL1, non-phosphorylated (ABL1, Homo sapiens, UniProt P00519)", "remaining binding [%]": 97}
{"target": "Serine/threonine-protein kinase DCLK3 (DCLK3, Homo sapiens, UniProt Q9C098)", "remaining binding [%]": 94}
{"target": "Mast/stem cell growth factor receptor Kit (KIT, Homo sapiens, UniProt P10721)", "remaining binding [%]": 95}
{"target": "Ribosomal protein S6 kinase alpha-4, C-terminal kinase domain (RPS6KA4, Homo sapiens, UniProt O75676)", "remaining binding [%]": 100}
{"target": "Serine/threonine-protein kinase Nek10 (NEK10, Homo sapiens, UniProt Q6ZWH5)", "remaining binding [%]": 100}
{"target": "Mitogen-activated protein kinase kinase kinase 11 (MAP3K11, Homo sapiens, UniProt Q16584)", "remaining binding [%]": 84}
{"target": "Serine/threonine-protein kinase PLK2 (PLK2, Homo sapiens, UniProt Q9NYY3)", "remaining binding [%]": 100}
{"target": "SNF-related serine/threonine-protein kinase (SNRK, Homo sapiens, UniProt Q9NRH2)", "remaining binding [%]": 100}
{"target": "Serine/threonine-protein kinase TAO1 (TAOK1, Homo sapiens, UniProt Q7L7X3)", "remaining binding [%]": 91}
{"data": "Block 4", "SMILES": "C=CC(=O)N1CCC([C@@H]2CCNc3c(C(N)=O)c(-c4ccc(Oc5ccccc5)cc4)nn32)CC1", "tested at": "1 µM"}
{"target": "MAP/microtubule affinity-regulating kinase 4 (MARK4, Homo sapiens, UniProt Q96L34)", "effect on": "enzyme activity", "action": "inhibitor", "inhibition [%]": 3}
{"target": "Serine/threonine-protein kinase Nek6 (NEK6, Homo sapiens, UniProt Q9HC98)", "effect on": "enzyme activity", "action": "inhibitor", "inhibition [%]": 5}
{"target": "SNF-related serine/threonine-protein kinase (SNRK, Homo sapiens, UniProt Q9NRH2)", "effect on": "enzyme activity", "action": "inhibitor", "inhibition [%]": 0}
{"target": "Activin receptor type-2A (ACVR2A, Homo sapiens, UniProt P27037)", "effect on": "enzyme activity", "action": "inhibitor", "inhibition [%]": 22}
{"target": "Tyrosine-protein kinase receptor TYRO3 (TYRO3, Homo sapiens, UniProt Q06418)", "effect on": "cell-free assay", "inhibition [%]": 47}
{"target": "Activin receptor type-1-like (ACVRL1, Homo sapiens, UniProt P37023)", "effect on": "enzyme activity", "action": "inhibitor", "inhibition [%]": 0}
{"target": "Beta-adrenergic receptor kinase 1 (GRK2, Homo sapiens, UniProt P25098)", "effect on": "enzyme activity", "action": "inhibitor", "inhibition [%]": 0}
{"target": "Serine/threonine-protein kinase WNK4 (WNK4, Homo sapiens, UniProt Q96J92)", "effect on": "enzyme activity", "action": "inhibitor", "inhibition [%]": 38}
{"target": "Interleukin-1 receptor-associated kinase 3 (IRAK3, Homo sapiens, UniProt Q9Y616)", "effect on": "enzyme activity", "action": "inhibitor", "inhibition [%]": 5}
{"target": "Ribosomal protein S6 kinase alpha-4, N-terminal kinase domain (RPS6KA4, Homo sapiens, UniProt O75676)", "action": "inhibitor", "inhibition [%]": 21}
{"target": "Fibroblast growth factor receptor 3 (FGFR3, Homo sapiens, UniProt P22607)", "effect on": "cell-free assay", "inhibition [%]": 15}
{"note": "For quick reference, copied from above (block 3):"}
{"target": "Cyclin-dependent kinase-like 5 (CDKL5, Homo sapiens, UniProt O76039)", "remaining binding [%]": 100}
{"target": "Dual specificity mitogen-activated protein kinase kinase 7 (MAP2K7, Homo sapiens, UniProt O14733)", "remaining binding [%]": 100}
{"target": "Tyrosine-protein kinase ABL1, non-phosphorylated (ABL1, Homo sapiens, UniProt P00519, H396P)", "remaining binding [%]": 97}
{"target": "Mitogen-activated protein kinase kinase kinase kinase 5 (MAP4K5, Homo sapiens, UniProt Q9Y4K4)", "remaining binding [%]": 100}
{"target": "Serine/threonine-protein kinase NLK (NLK, Homo sapiens, UniProt Q9UBE8)", "remaining binding [%]": 100}
{"target": "Tyrosine-protein kinase ABL1, non-phosphorylated (ABL1, Homo sapiens, UniProt P00519)", "remaining binding [%]": 97}
